Published values gathered from unrelated publications.
Parts stem from different laboratories: compare values within a part only.
UniProt P20794, sequence (whole entry, looked up): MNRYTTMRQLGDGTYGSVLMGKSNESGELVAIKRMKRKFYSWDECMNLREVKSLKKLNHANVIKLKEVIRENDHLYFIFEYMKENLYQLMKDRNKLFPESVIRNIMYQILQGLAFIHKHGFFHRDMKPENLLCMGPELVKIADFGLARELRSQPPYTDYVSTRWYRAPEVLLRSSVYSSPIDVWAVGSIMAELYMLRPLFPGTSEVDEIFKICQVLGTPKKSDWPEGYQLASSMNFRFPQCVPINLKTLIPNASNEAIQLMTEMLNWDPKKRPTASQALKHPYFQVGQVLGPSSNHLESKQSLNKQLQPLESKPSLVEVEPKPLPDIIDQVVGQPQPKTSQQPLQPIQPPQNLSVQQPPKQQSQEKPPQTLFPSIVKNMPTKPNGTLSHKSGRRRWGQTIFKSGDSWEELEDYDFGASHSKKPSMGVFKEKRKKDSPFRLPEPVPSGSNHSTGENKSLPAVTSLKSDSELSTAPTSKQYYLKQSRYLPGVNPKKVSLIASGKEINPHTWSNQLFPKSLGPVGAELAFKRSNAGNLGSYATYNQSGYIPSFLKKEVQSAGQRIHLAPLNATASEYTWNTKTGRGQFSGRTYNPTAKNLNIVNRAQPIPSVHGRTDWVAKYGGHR
UniProt Q8IVW4, sequence (whole entry, looked up): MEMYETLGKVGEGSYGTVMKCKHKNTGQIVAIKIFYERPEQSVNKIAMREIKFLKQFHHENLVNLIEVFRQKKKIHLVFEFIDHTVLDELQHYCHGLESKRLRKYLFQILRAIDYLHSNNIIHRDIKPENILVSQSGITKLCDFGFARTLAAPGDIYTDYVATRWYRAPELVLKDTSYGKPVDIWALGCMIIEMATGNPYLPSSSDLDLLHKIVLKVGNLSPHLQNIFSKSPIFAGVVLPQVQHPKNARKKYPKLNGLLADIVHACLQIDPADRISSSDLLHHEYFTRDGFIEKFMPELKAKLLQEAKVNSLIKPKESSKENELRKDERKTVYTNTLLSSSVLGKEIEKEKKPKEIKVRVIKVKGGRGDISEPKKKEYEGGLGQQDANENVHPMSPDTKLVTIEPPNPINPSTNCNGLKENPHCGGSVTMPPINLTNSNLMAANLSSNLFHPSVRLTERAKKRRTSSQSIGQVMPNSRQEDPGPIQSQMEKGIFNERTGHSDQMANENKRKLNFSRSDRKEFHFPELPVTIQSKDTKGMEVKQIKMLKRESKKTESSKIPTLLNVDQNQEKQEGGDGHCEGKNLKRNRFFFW
UniProt Q9BRS2, sequence (whole entry, looked up): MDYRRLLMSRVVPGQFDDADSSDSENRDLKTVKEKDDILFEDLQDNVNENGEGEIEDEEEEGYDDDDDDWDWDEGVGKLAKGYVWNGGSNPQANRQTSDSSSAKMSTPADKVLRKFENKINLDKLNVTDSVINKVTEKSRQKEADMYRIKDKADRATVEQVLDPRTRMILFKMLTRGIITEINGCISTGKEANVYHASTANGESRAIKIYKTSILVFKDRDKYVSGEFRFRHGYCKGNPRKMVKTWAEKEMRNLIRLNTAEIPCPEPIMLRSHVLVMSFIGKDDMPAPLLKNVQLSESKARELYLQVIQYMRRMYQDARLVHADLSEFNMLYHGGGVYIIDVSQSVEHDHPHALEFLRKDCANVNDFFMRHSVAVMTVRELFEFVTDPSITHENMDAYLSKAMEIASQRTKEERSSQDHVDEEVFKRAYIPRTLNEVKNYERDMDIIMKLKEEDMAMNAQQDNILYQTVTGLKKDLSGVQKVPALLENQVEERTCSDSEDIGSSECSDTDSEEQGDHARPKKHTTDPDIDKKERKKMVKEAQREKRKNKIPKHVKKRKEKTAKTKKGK
UniProt Q96SB4, sequence (whole entry, looked up): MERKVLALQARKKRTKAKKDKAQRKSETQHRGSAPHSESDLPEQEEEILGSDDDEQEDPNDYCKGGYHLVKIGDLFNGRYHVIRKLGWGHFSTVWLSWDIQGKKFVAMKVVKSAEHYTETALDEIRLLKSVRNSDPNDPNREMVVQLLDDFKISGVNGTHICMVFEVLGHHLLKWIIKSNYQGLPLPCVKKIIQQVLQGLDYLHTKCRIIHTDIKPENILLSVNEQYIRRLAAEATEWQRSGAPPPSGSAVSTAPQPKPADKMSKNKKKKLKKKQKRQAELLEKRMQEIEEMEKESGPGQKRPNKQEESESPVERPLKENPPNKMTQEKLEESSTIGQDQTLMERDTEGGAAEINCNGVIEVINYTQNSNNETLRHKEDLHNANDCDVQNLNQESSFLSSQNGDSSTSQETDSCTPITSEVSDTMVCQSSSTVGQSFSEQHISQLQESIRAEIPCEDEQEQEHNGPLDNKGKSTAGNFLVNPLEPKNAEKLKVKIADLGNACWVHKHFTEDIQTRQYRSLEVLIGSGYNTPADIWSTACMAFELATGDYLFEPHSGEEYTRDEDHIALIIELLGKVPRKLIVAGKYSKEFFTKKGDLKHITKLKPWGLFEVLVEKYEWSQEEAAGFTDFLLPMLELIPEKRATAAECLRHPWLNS
UniProt P43403, sequence (whole entry, looked up): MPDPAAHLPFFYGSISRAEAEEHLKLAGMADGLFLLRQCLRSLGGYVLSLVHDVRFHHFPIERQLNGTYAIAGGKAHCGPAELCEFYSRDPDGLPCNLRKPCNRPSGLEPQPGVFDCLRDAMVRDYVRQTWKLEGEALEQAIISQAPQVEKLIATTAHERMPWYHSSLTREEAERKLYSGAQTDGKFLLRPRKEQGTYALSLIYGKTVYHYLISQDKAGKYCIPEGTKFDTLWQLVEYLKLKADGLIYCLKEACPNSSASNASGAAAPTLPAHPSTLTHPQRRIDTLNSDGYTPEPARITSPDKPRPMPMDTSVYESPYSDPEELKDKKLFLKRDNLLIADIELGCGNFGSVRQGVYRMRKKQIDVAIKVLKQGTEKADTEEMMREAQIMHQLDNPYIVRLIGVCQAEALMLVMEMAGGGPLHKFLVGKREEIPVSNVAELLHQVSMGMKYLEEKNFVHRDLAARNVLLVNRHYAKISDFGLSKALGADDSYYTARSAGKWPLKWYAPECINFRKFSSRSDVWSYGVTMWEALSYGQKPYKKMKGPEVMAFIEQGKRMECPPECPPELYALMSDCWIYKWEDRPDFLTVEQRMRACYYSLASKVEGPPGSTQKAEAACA
UniProt Q8IU85, sequence (whole entry, looked up): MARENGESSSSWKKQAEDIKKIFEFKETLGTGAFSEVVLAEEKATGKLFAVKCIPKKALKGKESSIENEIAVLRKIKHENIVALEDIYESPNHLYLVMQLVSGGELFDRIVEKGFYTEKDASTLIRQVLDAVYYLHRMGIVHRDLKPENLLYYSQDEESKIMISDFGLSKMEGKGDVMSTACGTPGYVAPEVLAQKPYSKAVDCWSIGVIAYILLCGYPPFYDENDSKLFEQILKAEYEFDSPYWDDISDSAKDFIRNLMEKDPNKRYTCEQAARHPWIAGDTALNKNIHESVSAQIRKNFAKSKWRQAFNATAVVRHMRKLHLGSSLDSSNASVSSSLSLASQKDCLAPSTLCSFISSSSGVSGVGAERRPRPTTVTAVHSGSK
UniProt Q05513, sequence (whole entry, looked up): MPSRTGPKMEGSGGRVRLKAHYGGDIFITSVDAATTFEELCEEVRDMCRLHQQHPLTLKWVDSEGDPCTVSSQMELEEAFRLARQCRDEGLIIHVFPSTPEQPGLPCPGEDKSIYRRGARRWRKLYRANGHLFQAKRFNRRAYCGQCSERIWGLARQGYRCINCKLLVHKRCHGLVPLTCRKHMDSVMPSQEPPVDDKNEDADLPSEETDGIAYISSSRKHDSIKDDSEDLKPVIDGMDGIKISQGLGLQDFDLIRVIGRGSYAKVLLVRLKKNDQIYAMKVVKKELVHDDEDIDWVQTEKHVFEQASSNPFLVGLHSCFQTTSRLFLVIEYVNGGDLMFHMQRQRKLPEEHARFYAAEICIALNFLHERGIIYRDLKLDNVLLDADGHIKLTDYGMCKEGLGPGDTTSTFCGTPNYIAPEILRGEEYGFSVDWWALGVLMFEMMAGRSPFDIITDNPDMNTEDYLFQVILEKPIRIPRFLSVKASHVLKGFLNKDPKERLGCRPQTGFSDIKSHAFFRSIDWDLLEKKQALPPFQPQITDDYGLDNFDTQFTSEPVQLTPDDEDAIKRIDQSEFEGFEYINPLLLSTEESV
UniProt Q9HBY8, sequence (whole entry, looked up): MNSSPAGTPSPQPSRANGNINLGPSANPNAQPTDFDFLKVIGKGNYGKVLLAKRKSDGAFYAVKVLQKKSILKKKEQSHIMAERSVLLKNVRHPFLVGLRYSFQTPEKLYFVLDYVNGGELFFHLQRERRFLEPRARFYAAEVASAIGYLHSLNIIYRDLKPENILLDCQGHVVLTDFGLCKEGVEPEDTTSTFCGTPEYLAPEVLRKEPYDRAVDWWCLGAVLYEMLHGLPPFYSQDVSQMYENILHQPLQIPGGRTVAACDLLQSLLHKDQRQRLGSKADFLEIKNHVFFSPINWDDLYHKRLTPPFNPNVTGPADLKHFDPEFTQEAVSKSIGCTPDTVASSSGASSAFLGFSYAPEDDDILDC
UniProt Q8TBX8, sequence (whole entry, looked up): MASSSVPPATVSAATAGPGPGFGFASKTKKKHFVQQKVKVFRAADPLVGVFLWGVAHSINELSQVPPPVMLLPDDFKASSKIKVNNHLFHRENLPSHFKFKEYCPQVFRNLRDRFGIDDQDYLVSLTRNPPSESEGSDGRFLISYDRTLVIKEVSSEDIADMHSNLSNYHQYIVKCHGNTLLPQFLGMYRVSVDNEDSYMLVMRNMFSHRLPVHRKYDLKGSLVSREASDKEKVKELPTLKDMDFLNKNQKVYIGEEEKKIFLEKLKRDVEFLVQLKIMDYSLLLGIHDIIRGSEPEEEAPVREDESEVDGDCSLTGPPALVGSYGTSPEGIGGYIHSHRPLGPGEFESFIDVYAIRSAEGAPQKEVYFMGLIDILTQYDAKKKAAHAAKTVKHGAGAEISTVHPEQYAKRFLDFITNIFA

Sample 1 — effect on: enzyme activity; mode: inhibitor; tested at: 0.5 µM; reference: control
Compound: C[C@@H]1CCN(C(=O)CC#N)C[C@@H]1N(C)c1ncnc2[nH]ccc12
target | remaining activity [%]
Cyclin-dependent kinase 2, with cyclin E (CDK2, Homo sapiens, UniProt P24941) | 90.7
IGF1R (Homo sapiens, UniProt P08069) | 93.1
MAP3K20 (Homo sapiens, UniProt Q9NYL2) | 98.2
PRKCZ (Homo sapiens, UniProt Q05513) | 91.7
SGK2 (Homo sapiens, UniProt Q9HBY8) | 104
SRPK1 (Homo sapiens, UniProt Q96SB4) | 99.8
TYRO3 (Homo sapiens, UniProt Q06418) | 103

Sample 2 — species: human; matrix: microsomes or S9; tested at: 2 µM; time: 0.5 h
SMILES | remaining compound [%]
CCOC(=O)Nc1ccc(Br)c2ccc(OCc3ccccc3)c(CCCO)c12 | 70.2
C/C=C/Cn1c(C(=O)c2cc(C)cc(C)c2)c(CC)c(NCCO)nc1=O | 35.4
COc1cc(OC)cc(N(Cc2c(F)cccc2Cl)C(=O)Cc2ccncc2)c1 | 7.32
CCOc1cccc(CNCc2cccnc2)c1OCc1ccc(C)cc1 | 0.578
CCOC(=O)C(CC)c1cc(C#N)c(C#N)cc1O (stereo not drawn) | 53
COc1c(-c2ccccc2)oc2ccccc2c1=O | 37.4
Nc1nn(Cc2ccc(F)cc2Cl)cc1Cl | 96.9
Cc1csc(C2=C(O)CN(CCC(c3ccccc3)c3ccccc3)C2=N)n1 | 0.761
CCOc1cc(/C=N/n2cnnc2)ccc1OCCOCCOc1ccc(C)cc1 | 43.1
c1ccc(/C(Cc2ccn[nH]2)=N\N=C(/Cc2ccn[nH]2)c2ccccc2)cc1 | 52.7
COc1cc(CNCCN(C)C)c(Cl)cc1OCc1ccccc1 | 45.2

Sample 3 — effect on: cell-free assay; technique: competition with immobilised ligand; tested at: 1 µM
Structure (SMILES): C[C@@]1(Cc2ccc(C#N)cc2)C(=O)N(c2cc(Cl)cc(Cl)c2)c2ncc(C(=O)NC3(c4nc(C5CCC5)no4)CC3)n21
target | remaining binding
CDKL3 (Homo sapiens, UniProt Q8IVW4) | 100%
MAK (Homo sapiens, UniProt P20794) | 100%
ZAP70 (Homo sapiens, UniProt P43403) | 90%
PRKCE (Homo sapiens, UniProt Q02156) | 100%
WNK1 (Homo sapiens, UniProt Q9H4A3) | 99%
RIOK1 (Homo sapiens, UniProt Q9BRS2) | 100%
PIP4K2C (Homo sapiens, UniProt Q8TBX8) | 100%
CAMK1D (Homo sapiens, UniProt Q8IU85) | 100%

Single results of other studies
SMILES | matrix | measurement | value
CCC[C@H]1NC(=O)CSC[C@@H](C(=O)OCC)N(C)C(=O)[C@H](CC(C)C)NC(=O)[C@@H](C)N(C)C(=O)[C@H](CC(C)C)NC(=O)[C@H](C)N(C)C(=O)[C@@H]2CCCN2C(=O)[C@H](CC(C)C)NC(=O)CN(C)C1=O | hydrocarbon/water | logD | -0.307

A few entries again (sample 3):
target | remaining binding
ZAP70 (Homo sapiens, UniProt P43403) | 90%
PRKCE (Homo sapiens, UniProt Q02156) | 100%
WNK1 (Homo sapiens, UniProt Q9H4A3) | 99%
